Published values of several laboratories.
Compare with care: the assays were run in different laboratories. ± marks the error that the study gave.
CYP2E1: Cytochrome P450 2E1 (CYP2E1, Homo sapiens, UniProt P05181)
Chain of UniProt P05181 (whole entry, looked up): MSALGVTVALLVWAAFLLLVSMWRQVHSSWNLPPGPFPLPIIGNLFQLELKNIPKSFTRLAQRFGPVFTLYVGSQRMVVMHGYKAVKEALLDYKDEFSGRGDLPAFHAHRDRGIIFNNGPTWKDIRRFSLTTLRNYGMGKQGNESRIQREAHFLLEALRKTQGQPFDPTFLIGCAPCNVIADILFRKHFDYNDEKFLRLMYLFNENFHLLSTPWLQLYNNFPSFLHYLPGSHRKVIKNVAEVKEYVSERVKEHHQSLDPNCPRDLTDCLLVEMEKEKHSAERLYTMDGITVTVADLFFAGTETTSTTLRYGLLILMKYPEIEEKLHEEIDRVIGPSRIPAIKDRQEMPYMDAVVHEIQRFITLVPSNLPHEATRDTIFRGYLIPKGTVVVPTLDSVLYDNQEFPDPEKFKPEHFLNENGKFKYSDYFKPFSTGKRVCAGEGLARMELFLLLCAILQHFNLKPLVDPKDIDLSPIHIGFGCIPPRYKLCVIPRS
Urea transporter 1: Urea transporter 1 (Homo sapiens, UniProt Q13336)
Chain of UniProt Q13336 (whole entry, looked up): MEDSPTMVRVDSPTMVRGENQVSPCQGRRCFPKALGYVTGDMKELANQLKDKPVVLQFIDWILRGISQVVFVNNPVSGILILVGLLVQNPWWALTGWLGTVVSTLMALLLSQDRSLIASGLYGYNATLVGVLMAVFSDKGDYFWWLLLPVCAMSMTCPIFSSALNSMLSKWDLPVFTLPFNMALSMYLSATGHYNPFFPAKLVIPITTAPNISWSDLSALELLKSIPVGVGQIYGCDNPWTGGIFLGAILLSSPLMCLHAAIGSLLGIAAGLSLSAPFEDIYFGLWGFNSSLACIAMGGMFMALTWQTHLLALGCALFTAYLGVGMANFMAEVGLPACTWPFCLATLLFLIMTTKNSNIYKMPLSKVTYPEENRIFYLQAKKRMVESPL
Chain of UniProt Q9Y2H5 (whole entry, looked up): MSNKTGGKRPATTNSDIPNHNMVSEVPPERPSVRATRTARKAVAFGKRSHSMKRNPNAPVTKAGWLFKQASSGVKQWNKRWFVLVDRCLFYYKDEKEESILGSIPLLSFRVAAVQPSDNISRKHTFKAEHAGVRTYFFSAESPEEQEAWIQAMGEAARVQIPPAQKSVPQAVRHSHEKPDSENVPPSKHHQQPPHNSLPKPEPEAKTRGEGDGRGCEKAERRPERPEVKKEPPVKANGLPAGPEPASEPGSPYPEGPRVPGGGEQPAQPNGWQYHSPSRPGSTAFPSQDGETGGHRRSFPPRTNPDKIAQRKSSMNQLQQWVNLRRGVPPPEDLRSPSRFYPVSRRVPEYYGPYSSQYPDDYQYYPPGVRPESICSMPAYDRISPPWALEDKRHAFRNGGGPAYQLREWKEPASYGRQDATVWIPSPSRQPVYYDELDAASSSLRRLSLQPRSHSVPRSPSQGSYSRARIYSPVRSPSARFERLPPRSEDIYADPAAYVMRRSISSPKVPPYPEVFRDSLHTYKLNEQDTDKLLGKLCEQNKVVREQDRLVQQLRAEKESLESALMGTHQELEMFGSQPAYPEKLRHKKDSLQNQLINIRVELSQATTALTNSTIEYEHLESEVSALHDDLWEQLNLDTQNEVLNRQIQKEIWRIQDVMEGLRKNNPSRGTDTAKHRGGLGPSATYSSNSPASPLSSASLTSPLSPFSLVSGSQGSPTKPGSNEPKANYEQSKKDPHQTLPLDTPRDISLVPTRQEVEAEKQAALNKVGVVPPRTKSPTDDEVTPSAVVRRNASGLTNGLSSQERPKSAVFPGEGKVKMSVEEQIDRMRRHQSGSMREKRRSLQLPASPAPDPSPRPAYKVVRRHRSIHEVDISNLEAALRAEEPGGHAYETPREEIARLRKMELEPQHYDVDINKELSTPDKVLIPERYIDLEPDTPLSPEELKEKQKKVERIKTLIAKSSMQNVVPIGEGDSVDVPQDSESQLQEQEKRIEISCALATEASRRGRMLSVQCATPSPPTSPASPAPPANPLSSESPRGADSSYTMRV

CCc1oc2ccccc2c1C(=O)c1cc(Br)c(O)c(Br)c1 — Ki (CYP2E1; p-nitrophenol hydroxylation, inhibitor; baculosomes; 10 min, with additive 1 µM): 0.53 µM
NC(=S)c1ccncc1 — Ki (Urea transporter 1; urea transport inhibition; added: thiourea): 300 µM
CCc1oc2ccccc2c1C(=O)c1cc(I)c(O)c(I)c1 — Ki (CYP2E1; p-nitrophenol hydroxylation, inhibitor; baculosomes; 10 min, with additive 1 µM): 0.31 µM
Nc1ncnc2c1ncn2[C@@H]1O[C@H](COP(=O)(O)OP(=O)(O)O)[C@@H](O)[C@H]1O — Ki (klp-6 (Caenorhabditis elegans, UniProt G5EFQ4); microtubule gliding velocity, competitive inhibitor, single-molecule TIRF; pH 7.4, added: Mg-ATP varied, porcine microtubules): 901 ± 31 µM
NCCCC(=O)Nc1nnc(S(N)(=O)=O)s1 — Ki (Enterococcus faecium γ-carbonic anhydrase; CO2 hydration, inhibitor, stopped-flow kinetics): 0.0352 µM
NC(N)=S — Ki (Urea transporter 1; urea transport; inhibitor outside only): 12000 µM
NCCC(=O)Nc1nnc(S(N)(=O)=O)s1 — Ki (Enterococcus faecium γ-carbonic anhydrase; CO2 hydration, inhibitor, stopped-flow kinetics): 0.068 µM
CCOc1ccc(C(=O)CC(SCc2ccccc2)C(=O)O)cc1 (stereo not shown) — Ki (Pleckstrin homology domain-containing family A member 6, PH domain (PLEKHA6, Homo sapiens, UniProt Q9Y2H5); PLEKHA6 PI(4,5)P2 binding, fluorescence polarization; added: BODIPY-PI(4,5)P2 tracer): 170 ± 45 µM
NC(=O)C(=O)O — Ki (Urea transporter 1; urea transport): no effect
NS(=O)(=O)c1nnc(NC(=O)CN2CCC3(CC2)COC3)s1 — Ki (Enterococcus faecium γ-carbonic anhydrase; CO2 hydration, inhibitor, stopped-flow kinetics): 0.086 µM

Repeated from above:
NCCCC(=O)Nc1nnc(S(N)(=O)=O)s1 — Ki (Enterococcus faecium γ-carbonic anhydrase; CO2 hydration, inhibitor, stopped-flow kinetics): 0.0352 µM
NC(N)=S — Ki (Urea transporter 1; urea transport; inhibitor outside only): 12000 µM
